Experimental data pooled from the literature.
Lines come from different studies, so protocols differ. Values joined by “and” are separate records of one study, mostly repeats; a detail may differ.
Target: Phosphorylase b kinase gamma catalytic chain, liver/testis isoform (PHKG2, Homo sapiens, UniProt P15735)

Structure (SMILES)	assay	test system	conditions	scale	measurement	value
CCn1cc(C(=O)O)c(=O)c2c(N)c(F)c(NC3CCCCC3)cc21	kinase activity	–	0.1 µM, with: ATP at Km	–	inhibition	1.7%
O=C(Cc1ccc(OCc2ccccc2)cc1)NC1(C(=O)O)CCN(C(=O)c2ccc(-c3cccc(Cl)c3)cc2)CC1	enzyme activity, inhibitor	–	10 µM	–	activity vs control	110%
COCC12C(=O)NC3C4(C(OC)CC1O)C1CC5(O)C(OC)C(O)C(OC(C)=O)(C1C5OC(=O)c1ccccc1)C3(O)C(OC)C24 (centres unmarked)	kinase activity, inhibitor, ProQinase kinase profiling	–	25 µM	relative to: control	remaining activity	101% and 99%
N[C@H]1CC[C@H](Nc2nccc(-c3cccnc3Oc3ccc(NC(=O)NC4CC4)c4ccccc34)n2)CC1	kinobead competition pulldown	HEK293/HCT116 lysate mixture	10 µM, 1 h, 4 °C	lower = stronger competition	log2 LFQ intensity	24 and 23.9 and 24.1
NC(=O)[C@@H](O)C[C@H]1CCc2sc3ncnc(O[C@H]4CC[C@H](N5CCOCC5)CC4)c3c21	enzyme activity, inhibitor	–	10 µM	–	inhibition	8%
CNC(=O)C[C@H](Cc1ccc(C#N)cc1)NC(=O)c1cc(-c2ccc(CN[C@H](C)c3ccc(C)cc3)o2)ccc1Cl	enzyme activity, inhibitor	–	1 µM	–	activity vs control	96%
C=CC(=O)N1CCc2ccc(-n3c(=O)ccc4cnc5ccc(-c6cnn(C)c6)cc5c43)cc21	KINOMEscan	–	1 µM	relative to: DMSO control	remaining binding	98%
Cc1cccc(O[C@H]2CCC[C@@H](C(C)CNCc3ccncc3)C2)c1 (relative stereo)	enzyme activity, inhibitor	–	10 µM	–	inhibition	-8%
COc1c(OCCCN2CCOCC2)ccc2c1N=C(NC(=O)c1cnc(N)nc1)N1CCN=C21	kinase activity, inhibitor	–	1 µM	relative to: untreated control	remaining activity	82%
O=C=[N][Ru-4]123([n]4c5ccc(O)cc5c5c6c(c7cc(F)c[n+]1c7c54)C(=O)NC6=O)[S+]1CC[S+]2CC[S+]3CC1 (centres unmarked)	enzyme activity	–	100 nM, human enzyme, with: 10 µM ATP	relative to: untreated	remaining activity	95%
CN1CCN(Cc2ccc(-c3ccc(CO[C@H]4CCC[C@@H]4NC(=O)c4cc(-c5cnn(C)c5)cnc4N)cc3)cc2)CC1	enzyme activity, inhibitor	–	0.1 µM	–	inhibition	9%
C=CC(=O)Nc1cccc(-c2cnc3[nH]cc(C(=O)NC(C)(C)C)c3n2)c1	enzyme activity, inhibitor	–	0.1 µM	–	inhibition	7%
COc1cc(Nc2nc(C)cc(-c3cnn4nc(OC)ccc34)n2)cc(C(F)(F)F)c1	inhibitor	–	1 µM	relative to: control	remaining activity	100%
COc1c(Cl)cccc1Nc1c(-c2ccncc2C#C[C@@]2(C)CCCN2C(=O)/C=C/CN(C)C)[nH]c2c1C(=O)NCC2	cell-free assay, competition with immobilised ligand	–	3 µM	–	remaining binding	91%

For quick reference, copied from above:
Structure (SMILES)	assay	test system	conditions	scale	measurement	value
C=CC(=O)Nc1cccc(-c2cnc3[nH]cc(C(=O)NC(C)(C)C)c3n2)c1	enzyme activity, inhibitor	–	0.1 µM	–	inhibition	7%
